Measurements of several laboratories.
A part holds a random share of what one study measured.

Series 1 — method: protein-binding microarray; molecule type: double-stranded DNA, one strand shown; sample: in vitro; tested at: not given; direction: higher = stronger binding; endpoint: E-score
Target: Protein C-ets-1 (ETS1, Homo sapiens, UniProt P14921, residues 1-441, Y397A, full length assumed)
Sequence of UniProt P14921 (whole entry, unmodified, looked up): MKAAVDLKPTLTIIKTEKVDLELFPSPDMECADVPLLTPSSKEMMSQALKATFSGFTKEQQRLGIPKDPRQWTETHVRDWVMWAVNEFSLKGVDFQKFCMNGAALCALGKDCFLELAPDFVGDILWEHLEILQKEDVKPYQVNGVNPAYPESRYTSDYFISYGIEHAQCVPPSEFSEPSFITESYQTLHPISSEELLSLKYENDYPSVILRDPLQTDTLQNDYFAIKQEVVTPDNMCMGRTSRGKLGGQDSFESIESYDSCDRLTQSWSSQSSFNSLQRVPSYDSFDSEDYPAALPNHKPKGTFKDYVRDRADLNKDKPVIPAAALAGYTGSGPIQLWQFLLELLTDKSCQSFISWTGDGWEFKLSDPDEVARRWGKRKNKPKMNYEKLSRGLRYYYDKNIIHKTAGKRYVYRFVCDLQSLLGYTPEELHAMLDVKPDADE
Setting: k-mer, scored over probes, only values ≥0.25
TATATACA: 0.287
ATGCCAAA: 0.275
ACTTCCGA: 0.468
AGCAAAAC: 0.267

Series 2 — method: competition protein-binding microarray; molecule type: double-stranded DNA, one strand shown; sample: in vitro; tested at: 2 µM; together with: Cbf1 competitor, 0.05 µM; direction: higher = stronger binding; endpoint: fluorescence intensity
Target: Phosphate system positive regulatory protein PHO4, full length, GST-tagged (PHO4, Saccharomyces cerevisiae, UniProt P07270, residues 1-312)
Setting: whole 60-bp probe, lowest competitor level
Target sequence (chain): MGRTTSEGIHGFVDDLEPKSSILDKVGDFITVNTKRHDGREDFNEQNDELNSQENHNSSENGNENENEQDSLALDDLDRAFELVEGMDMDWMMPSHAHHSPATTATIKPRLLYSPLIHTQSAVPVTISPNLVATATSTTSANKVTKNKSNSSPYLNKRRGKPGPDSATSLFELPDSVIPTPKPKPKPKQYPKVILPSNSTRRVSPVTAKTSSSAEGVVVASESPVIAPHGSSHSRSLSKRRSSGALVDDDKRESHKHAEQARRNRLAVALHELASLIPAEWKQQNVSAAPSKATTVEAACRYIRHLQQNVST
CTTCTGTAAATTTGGTACGTGGGTGGACGCGCCCCGGTCTTGATTCGCTTGACGCTGCTG: 8440 a.u.
TCACAGGAAAAGGCCCACATGCCAAAAAGGGTACCAGTCTTGATTCGCTTGACGCTGCTG: 11000 a.u.
CGTCCTAGCGATTGAGCCGTGGGTGCCATGAGGAAGGTCTTGATTCGCTTGACGCTGCTG: 6660 a.u.
CTTTCCCGATCTTTTCACGTGAATTTAGCACATTTGGTCTTGATTCGCTTGACGCTGCTG: 11200 a.u.

Series 3 — method: aptamer microarray, sandwich; molecule type: DNA with 2'F-ANA; sample: in vitro; tested at: 200 nM; together with: Cy3 exosite-II aptamer, 400 nM; direction: higher = stronger binding; endpoint: mean fluorescence intensity; sequence: GGTTGGTGTGGTTGG
Target: Prothrombin, mature alpha-thrombin (F2, Homo sapiens, UniProt P00734)
Setting: whole 15-mer aptamer, many near background
2'F-ANA at 5 6 7 8 9 11: 70.7 a.u.
2'F-ANA at 5 6 7 9 10 11 12 14: 48.7 a.u.
2'F-ANA at 2 3 4 7 8 9 12 13 15: 684 a.u.
2'F-ANA at 1 5 7 9 10 13 14: 46.8 a.u.
2'F-ANA at 2 3 6 8 9 10 11 12 15: 434 a.u.

Further values, each from its own experiment
PhoQ, residues 284 288 289 292 302 303 SVTLVV  fold induction (PhoP, residues 12 14 15 18 19 VHSCL (Escherichia coli, UniProt P23836); Sort-seq, refers to: YFP reporter; E. coli; PhoQ-PhoP variant library, together with: 10 µM Mg2+; baseline: high Mg2+ state, higher = stronger signaling): 11.5

For quick reference, copied from above (series 2):
CTTCTGTAAATTTGGTACGTGGGTGGACGCGCCCCGGTCTTGATTCGCTTGACGCTGCTG: 8440 a.u.
